# Values quoted from earlier work as cited in several papers.
# Compare with care: the assays were run in different laboratories. ± gives the spread as reported.
# Sequence of UniProt Q92630 (whole entry, looked up): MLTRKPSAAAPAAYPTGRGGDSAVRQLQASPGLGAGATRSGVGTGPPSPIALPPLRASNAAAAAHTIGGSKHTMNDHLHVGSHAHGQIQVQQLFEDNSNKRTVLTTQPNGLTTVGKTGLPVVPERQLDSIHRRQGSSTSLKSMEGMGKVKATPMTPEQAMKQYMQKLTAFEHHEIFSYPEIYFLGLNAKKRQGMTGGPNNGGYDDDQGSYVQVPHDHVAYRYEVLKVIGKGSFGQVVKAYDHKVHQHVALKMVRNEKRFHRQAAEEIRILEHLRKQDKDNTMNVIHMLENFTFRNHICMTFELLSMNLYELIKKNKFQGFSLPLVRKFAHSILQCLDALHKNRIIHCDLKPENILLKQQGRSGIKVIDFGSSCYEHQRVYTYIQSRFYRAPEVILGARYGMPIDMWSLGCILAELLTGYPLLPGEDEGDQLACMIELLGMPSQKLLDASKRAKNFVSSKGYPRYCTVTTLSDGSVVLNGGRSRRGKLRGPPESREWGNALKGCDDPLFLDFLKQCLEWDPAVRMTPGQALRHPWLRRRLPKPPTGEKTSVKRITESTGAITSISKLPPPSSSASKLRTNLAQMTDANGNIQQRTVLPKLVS
SMILES,tested on,test,system,setting,scale,measurement,value
Nc1cc(C(F)(F)F)c(-c2nc(N3CCOCC3)nc(N3CCOCC3)n2)cn1,"DYRK2 (Homo sapiens, UniProt Q92630)",enzyme activity,,10 µM,reference: untreated,remaining activity,100%
CCc1nc(N)nc(N)c1-c1ccc(Cl)cc1,Plasmodium falciparum,,"3D70087/N9, NSG mouse",,,ED90,0.9 mg/kg
Cc1ccc(Oc2ccc(NC(=O)CNc3ccccc3N3CCCC3=O)cc2)cc1,Plasmodium falciparum,parasite growth,3D7 resistant population A,,,EC50,5.13 µM
CNC(C)C1CCC(N)C(OC2C(N)CC(N)C(OC3OCC(C)(O)C(NC)C3O)C2O)O1 (stereo not shown),Acinetobacter baumannii,,clinical isolate RKI-No_16/15,,,MIC,> 8 mg/L
Cc1[nH]c(C)c(-c2ccc(-c3ccccc3C(F)(F)F)nc2)c(=O)c1Br,Plasmodium falciparum,whole cell extended time,3D7,72 h,,IC50,0.17 µM
N#Cc1cc(NC(=O)[C@H]2c3ccccc3C(=O)N(CC(F)(F)F)[C@@H]2c2cccnc2)ccc1F,Plasmodium falciparum,clonal dilution,,exposure above EC99,,time to maximal kill,96 h
O=C(Nc1ccc(OC2CCN(Cc3ccccc3)C2)c(Cl)c1)c1cccs1 (stereo not shown),Plasmodium falciparum,whole cell extended time,3D7,72 h,,IC50,0.39 µM
C/C=C1\NC(=O)[C@H]2CSSCC/C=C/[C@H](CC(=O)N[C@H](C(C)C)C(=O)N2)OC(=O)[C@H](C(C)C)NC1=O,Plasmodium falciparum,parasite growth,3D7,,,IC50,0.115 ± 0.035 µM
N/C(CC(O)c1cc2c(F)cc(F)cc2c2cc(C(F)(F)F)ccc12)=N\c1ccc(F)cc1 (stereo not shown),Plasmodium falciparum,parasite growth,NF54,,,IC50,0.012 µM
CCN(CC)CCCC(C)Nc1ccnc2cc(Cl)ccc12 (stereo not shown),Plasmodium falciparum,,"3D70087/N9, NSG mouse",,,ED90,4.3 mg/kg
C/C=C/COc1ccc(-c2c(C)[nH]c(C)c(Cl)c2=O)cc1,Plasmodium falciparum,whole cell extended time,3D7,72 h,,IC50,0.2 µM
CC1(C)S[C@@H]2[C@H](NC(=O)[C@H](N)c3ccccc3)C(=O)N2[C@H]1C(=O)O,Acinetobacter baumannii,,clinical isolate RKI-No_231/15,,,MIC,> 16 mg/L
Cc1[nH]c2ccccc2c1CCNCc1ccc(/C=C/C(=O)NO)cc1,Plasmodium falciparum,parasite growth,Dd2 (chloroquine-resistant),,,IC50,0.03 ± 0.04 µM

# Excerpt of the above:
SMILES,tested on,test,system,setting,scale,measurement,value
CCc1nc(N)nc(N)c1-c1ccc(Cl)cc1,Plasmodium falciparum,,"3D70087/N9, NSG mouse",,,ED90,0.9 mg/kg
Cc1ccc(Oc2ccc(NC(=O)CNc3ccccc3N3CCCC3=O)cc2)cc1,Plasmodium falciparum,parasite growth,3D7 resistant population A,,,EC50,5.13 µM
